Published values collected from several papers.
Numbered parts are unrelated; each lists some results of a single study. Substitutions count along the parent as printed.

Sample 1 — target: CCND1, cyclin fold, Cln2 fusion (human); method: yeast growth competition, sequencing; sample: yeast; setting: weak parent motif; baseline: not given; reading: higher = stronger binding; quantity: normalised enrichment score
Starting sequence: HASPIN docking peptide (human); ASLRSVLFGLMNS; partner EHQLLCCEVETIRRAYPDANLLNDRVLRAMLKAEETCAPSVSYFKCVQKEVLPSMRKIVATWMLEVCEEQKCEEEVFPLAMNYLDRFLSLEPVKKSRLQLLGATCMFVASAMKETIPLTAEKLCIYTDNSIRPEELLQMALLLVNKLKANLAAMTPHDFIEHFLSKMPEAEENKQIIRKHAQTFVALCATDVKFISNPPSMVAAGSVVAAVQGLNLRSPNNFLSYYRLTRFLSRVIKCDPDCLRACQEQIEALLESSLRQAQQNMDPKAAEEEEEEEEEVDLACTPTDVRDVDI
G9A: 0.468
L7A: 0.111
L3A: 0.313
M11A: 0.988
S2A: 0.158
V6A: 0.551

Sample 2 — method: universal PBM; form: double-stranded DNA, one strand shown; sample: in vitro; concentration: 600 nM; reading: higher = stronger binding; quantity: E-score
Target: Sal-like protein 4, full length isoform A (SALL4, Homo sapiens, UniProt Q9UJQ4, residues 1-1053)
UniProt Q9UJQ4, sequence (whole entry, looked up): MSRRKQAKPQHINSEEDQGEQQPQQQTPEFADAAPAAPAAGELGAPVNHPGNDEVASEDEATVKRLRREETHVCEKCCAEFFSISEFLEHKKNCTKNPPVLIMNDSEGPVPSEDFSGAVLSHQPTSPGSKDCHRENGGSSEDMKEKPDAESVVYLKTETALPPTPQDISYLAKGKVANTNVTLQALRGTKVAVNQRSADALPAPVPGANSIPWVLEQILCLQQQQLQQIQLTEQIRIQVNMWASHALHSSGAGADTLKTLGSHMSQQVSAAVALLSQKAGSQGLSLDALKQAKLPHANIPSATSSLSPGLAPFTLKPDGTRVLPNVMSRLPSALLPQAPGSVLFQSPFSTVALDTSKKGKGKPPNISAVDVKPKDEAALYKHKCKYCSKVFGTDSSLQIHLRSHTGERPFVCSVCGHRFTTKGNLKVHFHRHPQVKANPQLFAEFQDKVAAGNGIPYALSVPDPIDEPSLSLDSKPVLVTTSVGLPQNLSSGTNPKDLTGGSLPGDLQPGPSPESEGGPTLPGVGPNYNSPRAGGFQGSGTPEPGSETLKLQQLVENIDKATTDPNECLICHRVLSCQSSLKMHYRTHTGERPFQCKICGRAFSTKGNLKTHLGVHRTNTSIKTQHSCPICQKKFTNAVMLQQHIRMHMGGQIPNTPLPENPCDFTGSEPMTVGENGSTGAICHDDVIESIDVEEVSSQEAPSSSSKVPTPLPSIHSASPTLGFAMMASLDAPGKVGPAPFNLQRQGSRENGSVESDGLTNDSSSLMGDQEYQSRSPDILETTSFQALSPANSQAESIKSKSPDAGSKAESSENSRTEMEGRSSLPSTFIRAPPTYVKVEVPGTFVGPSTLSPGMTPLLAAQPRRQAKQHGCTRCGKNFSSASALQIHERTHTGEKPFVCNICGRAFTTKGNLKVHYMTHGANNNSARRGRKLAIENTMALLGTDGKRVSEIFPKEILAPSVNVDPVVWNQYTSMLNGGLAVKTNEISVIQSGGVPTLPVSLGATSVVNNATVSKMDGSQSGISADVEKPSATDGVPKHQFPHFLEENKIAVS
Setting: 8-mer, flanks averaged, mean of replicates
ACAGATCT: -0.0118
AATGTCAA: 0.207
ACAGCGTG: -0.0854
AACTGAGC: -0.229
ACATGCAT: 0.119
CCAGTTTC: -0.263
CACTCAAG: -0.145
AATAACGC: 0.137
ACGTGACT: 0.0154
ACGATTGA: 0.0305
AAGAGCAG: -0.0534
CGCCGTGC: -0.187
GCTGGGTA: -0.207
CGTGGATC: -0.173
GGTCTGTA: -0.0715
CTCTCCAA: 0.0402
AATAACCC: 0.208

Sample 3 — method: DHFR PCA, deep sequencing; sample: yeast; with: (+)-ABA 0.39 µM; baseline: wild-type fitted maximum; reading: higher = stronger binding; quantity: relative binding score
Target: ABI1, truncated, D143A, DHFR fusion (Arabidopsis thaliana)
Setting: methotrexate growth selection, single substitutions
Starting sequence: PYL1, truncated, DHFR fusion (Arabidopsis thaliana); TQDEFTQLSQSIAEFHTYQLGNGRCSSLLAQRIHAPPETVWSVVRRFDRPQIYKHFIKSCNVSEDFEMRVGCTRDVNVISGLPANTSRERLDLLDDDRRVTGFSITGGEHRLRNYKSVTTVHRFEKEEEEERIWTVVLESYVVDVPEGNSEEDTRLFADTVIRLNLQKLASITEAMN
E151G: 11.4%
D144M: 1.69%
R88S: 24.9%
Y141N: -12%
F124C: 34.4%
G102A: 12.2%
T106D: 13.5%
S42N: 34.8%
N177R: 27.1%
L166S: -9.05%
L82W: 47%
R123L: 9.83%
R74S: -5.78%
D97W: 5.94%
S80V: 1.33%
I162W: 1.63%
T120D: -13.2%

Single results of other studies
PhoQ, residues 284 288 289 292 302 303 HSSMNL  fold induction (PhoP, residues 12 14 15 18 19 IQSYL (Escherichia coli, UniProt P23836); Sort-seq, measured: YFP reporter; E. coli; PhoQ-PhoP variant library, with: 10 µM Mg2+; baseline: high Mg2+ state, higher = stronger signaling): 16.3

Excerpt of the above (sample 3):
N177R: 27.1%
L166S: -9.05%
S42N: 34.8%
I162W: 1.63%
D97W: 5.94%
T106D: 13.5%
